Measurements pooled from the literature.
Parts stem from different laboratories: compare values within a part only.
Sequence of UniProt O75582 (whole entry, looked up): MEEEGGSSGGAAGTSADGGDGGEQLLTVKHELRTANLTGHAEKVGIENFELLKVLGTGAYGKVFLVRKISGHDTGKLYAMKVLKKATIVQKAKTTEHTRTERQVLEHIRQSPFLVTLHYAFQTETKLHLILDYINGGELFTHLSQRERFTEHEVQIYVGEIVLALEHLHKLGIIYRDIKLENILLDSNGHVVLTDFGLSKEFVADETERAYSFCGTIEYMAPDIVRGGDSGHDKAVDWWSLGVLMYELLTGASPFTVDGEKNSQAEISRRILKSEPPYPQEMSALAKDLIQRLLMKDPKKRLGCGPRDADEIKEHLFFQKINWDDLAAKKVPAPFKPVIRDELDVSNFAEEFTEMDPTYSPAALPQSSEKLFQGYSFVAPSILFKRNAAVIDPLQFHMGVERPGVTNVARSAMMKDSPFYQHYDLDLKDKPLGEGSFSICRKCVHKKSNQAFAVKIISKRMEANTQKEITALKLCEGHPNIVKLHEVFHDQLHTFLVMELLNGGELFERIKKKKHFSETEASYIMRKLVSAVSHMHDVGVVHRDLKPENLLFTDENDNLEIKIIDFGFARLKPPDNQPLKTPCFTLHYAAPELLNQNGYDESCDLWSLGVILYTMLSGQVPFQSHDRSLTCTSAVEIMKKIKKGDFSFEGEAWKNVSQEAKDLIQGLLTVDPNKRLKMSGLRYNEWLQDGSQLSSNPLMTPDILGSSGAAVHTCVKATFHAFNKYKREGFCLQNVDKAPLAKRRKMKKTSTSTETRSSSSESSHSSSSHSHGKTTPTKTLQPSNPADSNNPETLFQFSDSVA
Sequence of UniProt Q16816 (whole entry, looked up): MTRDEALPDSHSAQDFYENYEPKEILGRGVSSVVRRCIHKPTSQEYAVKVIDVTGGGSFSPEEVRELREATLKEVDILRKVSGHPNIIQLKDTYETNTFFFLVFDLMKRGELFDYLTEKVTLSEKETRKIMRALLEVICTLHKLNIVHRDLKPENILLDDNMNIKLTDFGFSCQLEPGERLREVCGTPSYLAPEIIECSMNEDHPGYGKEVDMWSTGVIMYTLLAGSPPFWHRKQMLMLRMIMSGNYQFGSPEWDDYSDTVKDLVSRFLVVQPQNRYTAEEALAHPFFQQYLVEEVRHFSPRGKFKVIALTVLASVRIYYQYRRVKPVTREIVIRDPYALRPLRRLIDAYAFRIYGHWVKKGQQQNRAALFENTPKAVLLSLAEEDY
Sequence of UniProt O15530 (whole entry, looked up): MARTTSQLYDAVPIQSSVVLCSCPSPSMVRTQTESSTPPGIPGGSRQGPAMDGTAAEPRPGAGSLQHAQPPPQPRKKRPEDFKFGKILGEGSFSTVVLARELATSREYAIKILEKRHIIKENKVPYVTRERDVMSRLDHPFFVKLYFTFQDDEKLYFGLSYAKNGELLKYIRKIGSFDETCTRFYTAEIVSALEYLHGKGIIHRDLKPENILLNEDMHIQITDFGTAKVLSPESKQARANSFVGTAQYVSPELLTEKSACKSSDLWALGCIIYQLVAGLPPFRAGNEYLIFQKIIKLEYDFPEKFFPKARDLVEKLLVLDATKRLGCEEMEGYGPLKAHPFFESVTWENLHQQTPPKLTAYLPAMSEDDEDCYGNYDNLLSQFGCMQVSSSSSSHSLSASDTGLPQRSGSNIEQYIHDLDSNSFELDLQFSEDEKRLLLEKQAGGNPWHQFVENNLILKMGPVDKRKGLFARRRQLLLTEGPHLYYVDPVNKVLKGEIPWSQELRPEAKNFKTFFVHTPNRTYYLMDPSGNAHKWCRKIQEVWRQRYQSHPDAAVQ
Sequence of UniProt P54764 (whole entry, looked up): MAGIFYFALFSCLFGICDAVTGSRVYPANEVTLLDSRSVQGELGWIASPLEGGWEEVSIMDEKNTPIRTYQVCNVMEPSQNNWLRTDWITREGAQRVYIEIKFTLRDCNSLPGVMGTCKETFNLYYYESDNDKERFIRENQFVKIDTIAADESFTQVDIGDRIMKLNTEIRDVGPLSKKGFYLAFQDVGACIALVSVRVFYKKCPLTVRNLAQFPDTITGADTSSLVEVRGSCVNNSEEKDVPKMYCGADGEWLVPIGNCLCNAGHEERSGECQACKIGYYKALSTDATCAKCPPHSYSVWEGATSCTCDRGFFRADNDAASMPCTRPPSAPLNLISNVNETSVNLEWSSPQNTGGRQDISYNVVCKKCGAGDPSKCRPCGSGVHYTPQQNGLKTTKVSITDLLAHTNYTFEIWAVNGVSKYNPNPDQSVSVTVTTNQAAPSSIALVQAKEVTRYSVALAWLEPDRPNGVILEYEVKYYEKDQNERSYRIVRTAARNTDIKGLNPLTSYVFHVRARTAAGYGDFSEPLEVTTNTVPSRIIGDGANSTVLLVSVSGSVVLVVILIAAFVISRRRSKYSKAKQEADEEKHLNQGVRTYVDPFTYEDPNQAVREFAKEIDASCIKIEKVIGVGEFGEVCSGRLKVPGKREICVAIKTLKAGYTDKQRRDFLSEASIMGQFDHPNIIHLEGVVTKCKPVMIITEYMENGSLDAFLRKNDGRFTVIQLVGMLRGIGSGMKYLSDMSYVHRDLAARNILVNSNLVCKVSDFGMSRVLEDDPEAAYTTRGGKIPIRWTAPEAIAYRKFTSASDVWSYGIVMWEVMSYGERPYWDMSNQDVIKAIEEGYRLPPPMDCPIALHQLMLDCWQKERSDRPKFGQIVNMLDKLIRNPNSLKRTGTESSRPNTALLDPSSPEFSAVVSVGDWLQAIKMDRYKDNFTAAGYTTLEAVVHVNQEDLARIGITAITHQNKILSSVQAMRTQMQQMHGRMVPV
Sequence of UniProt O75716 (whole entry, looked up): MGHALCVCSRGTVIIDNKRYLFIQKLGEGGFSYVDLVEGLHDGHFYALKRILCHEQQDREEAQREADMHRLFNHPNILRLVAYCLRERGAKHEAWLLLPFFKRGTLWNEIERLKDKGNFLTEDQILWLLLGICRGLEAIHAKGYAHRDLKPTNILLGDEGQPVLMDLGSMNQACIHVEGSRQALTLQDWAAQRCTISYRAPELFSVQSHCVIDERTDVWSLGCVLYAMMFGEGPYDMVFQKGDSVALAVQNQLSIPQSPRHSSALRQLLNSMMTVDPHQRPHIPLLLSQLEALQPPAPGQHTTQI
Sequence of UniProt Q16644 (whole entry, looked up): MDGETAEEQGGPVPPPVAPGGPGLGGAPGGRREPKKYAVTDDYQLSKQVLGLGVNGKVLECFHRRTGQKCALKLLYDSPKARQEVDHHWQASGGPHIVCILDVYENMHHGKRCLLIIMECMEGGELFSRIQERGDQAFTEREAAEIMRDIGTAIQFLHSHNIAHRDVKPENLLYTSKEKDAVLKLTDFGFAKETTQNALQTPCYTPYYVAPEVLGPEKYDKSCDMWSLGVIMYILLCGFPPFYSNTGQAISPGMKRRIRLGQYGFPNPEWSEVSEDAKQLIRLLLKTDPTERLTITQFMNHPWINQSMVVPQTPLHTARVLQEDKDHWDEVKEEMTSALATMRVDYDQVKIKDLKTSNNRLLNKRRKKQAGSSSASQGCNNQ

Sample 1
Structure (SMILES): CCCCN(CCCC)C(=O)CN1C[C@@H](c2cc(OC)c3c(c2)OCO3)[C@H](C(=O)O)[C@H]1CC(C)(C)CCC
Concentration: 1 µM
| target | effect on | technique | remaining binding [%] |
| --- | --- | --- | --- |
| Mast/stem cell growth factor receptor Kit (KIT, Homo sapiens, UniProt P10721, A829P) | cell-free assay | competition with immobilised ligand | 76.5 |
| Tyrosine-protein kinase Lck (LCK, Homo sapiens, UniProt P06239) | cell-free assay | competition with immobilised ligand | 99.1 |
| Cyclin-dependent kinase 19 (CDK19, Homo sapiens, UniProt Q9BWU1) |  | competition binding | 99.6 |
| Serine/threonine-protein kinase Nek6 (NEK6, Homo sapiens, UniProt Q9HC98) | cell-free assay | competition with immobilised ligand | 98.1 |
| Megakaryocyte-associated tyrosine-protein kinase (MATK, Homo sapiens, UniProt P42679) | cell-free assay | competition with immobilised ligand | 100 |
| Ephrin type-A receptor 6 (EPHA6, Homo sapiens, UniProt Q9UF33) | cell-free assay | competition with immobilised ligand | 100 |
| Inhibitor of nuclear factor kappa-B kinase subunit epsilon (IKBKE, Homo sapiens, UniProt Q14164) | cell-free assay | competition with immobilised ligand | 89.7 |
| Tyrosine-protein kinase SYK (SYK, Homo sapiens, UniProt P43405) | cell-free assay | competition with immobilised ligand | 100 |
| Atypical kinase COQ8A, mitochondrial (COQ8A, Homo sapiens, UniProt Q8NI60) | cell-free assay | competition with immobilised ligand | 99.4 |
| Dual specificity mitogen-activated protein kinase kinase 7 (MAP2K7, Homo sapiens, UniProt O14733) | cell-free assay | competition with immobilised ligand | 88.6 |
| Serine/threonine-protein kinase PRP4 homolog (PRPF4B, Homo sapiens, UniProt Q13523) | cell-free assay | competition with immobilised ligand | 99.3 |
| Ephrin type-A receptor 5 (EPHA5, Homo sapiens, UniProt P54756) | cell-free assay | competition with immobilised ligand | 81.9 |
| MAP kinase-activated protein kinase 5 (MAPKAPK5, Homo sapiens, UniProt Q8IW41) | cell-free assay | competition with immobilised ligand | 100 |
| Serine/threonine-protein kinase 35 (STK35, Homo sapiens, UniProt Q8TDR2) | cell-free assay | competition with immobilised ligand | 100 |
| Serine/threonine-protein kinase PAK 4 (PAK4, Homo sapiens, UniProt O96013) | cell-free assay | competition with immobilised ligand | 90.2 |
| Cyclin-dependent kinase 2 (CDK2, Homo sapiens, UniProt P24941) | cell-free assay | competition with immobilised ligand | 100 |
| Myotonin-protein kinase (DMPK, Homo sapiens, UniProt Q09013) | cell-free assay | competition with immobilised ligand | 100 |
| ALK tyrosine kinase receptor (ALK, Homo sapiens, UniProt Q9UM73) | cell-free assay | competition with immobilised ligand | 100 |
| Ribosomal protein S6 kinase alpha-5, C-terminal kinase domain (RPS6KA5, Homo sapiens, UniProt O75582) | cell-free assay | competition with immobilised ligand | 98.5 |
| Mitogen-activated protein kinase 15 (MAPK15, Homo sapiens, UniProt Q8TD08) | cell-free assay | competition with immobilised ligand | 100 |
| Serine/threonine-protein kinase WNK2 (WNK2, Homo sapiens, UniProt Q9Y3S1) | cell-free assay | competition with immobilised ligand | 99.3 |
| Serine/threonine-protein kinase 17B (STK17B, Homo sapiens, UniProt O94768) | cell-free assay | competition with immobilised ligand | 100 |
| Bone morphogenetic protein receptor type-1B (BMPR1B, Homo sapiens, UniProt O00238) | cell-free assay | competition with immobilised ligand | 100 |

Sample 2
Compound: C=CCc1ccc(O)c(-c2cc(CC=C)ccc2O)c1
ANO1: Anoctamin-1 (ANO1, Homo sapiens, UniProt Q5XXA6)
Sequence of UniProt Q5XXA6 (whole entry, unmodified, looked up): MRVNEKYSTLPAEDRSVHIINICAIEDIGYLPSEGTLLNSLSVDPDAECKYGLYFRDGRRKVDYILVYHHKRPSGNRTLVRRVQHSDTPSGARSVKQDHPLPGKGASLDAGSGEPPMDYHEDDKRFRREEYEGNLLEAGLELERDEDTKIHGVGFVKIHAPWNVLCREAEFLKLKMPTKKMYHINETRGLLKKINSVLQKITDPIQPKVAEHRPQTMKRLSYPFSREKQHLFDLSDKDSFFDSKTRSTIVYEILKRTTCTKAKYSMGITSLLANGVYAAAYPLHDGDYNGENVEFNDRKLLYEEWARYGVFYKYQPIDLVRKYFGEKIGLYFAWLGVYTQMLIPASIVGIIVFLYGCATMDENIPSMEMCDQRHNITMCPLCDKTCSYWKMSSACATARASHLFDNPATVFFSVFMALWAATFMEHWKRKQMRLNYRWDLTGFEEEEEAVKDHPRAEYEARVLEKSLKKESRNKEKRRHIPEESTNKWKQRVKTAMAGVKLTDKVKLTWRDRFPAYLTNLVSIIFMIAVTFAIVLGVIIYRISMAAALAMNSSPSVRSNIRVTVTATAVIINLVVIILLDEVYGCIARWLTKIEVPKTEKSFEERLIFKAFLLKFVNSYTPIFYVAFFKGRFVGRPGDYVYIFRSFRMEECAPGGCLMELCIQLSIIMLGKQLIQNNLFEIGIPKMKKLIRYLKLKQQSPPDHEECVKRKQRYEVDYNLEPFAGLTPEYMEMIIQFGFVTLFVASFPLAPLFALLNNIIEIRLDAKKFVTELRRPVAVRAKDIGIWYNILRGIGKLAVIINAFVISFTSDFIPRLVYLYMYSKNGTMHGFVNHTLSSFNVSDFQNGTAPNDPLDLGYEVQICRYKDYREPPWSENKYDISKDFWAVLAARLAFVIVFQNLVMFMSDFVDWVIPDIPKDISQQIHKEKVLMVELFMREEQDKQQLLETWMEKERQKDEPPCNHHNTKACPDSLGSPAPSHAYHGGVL
ANO1 del476-501/R541A: Anoctamin-1 (ANO1, Homo sapiens, UniProt Q5XXA6, del476-501/R541A)
ANO1 del476-501/E649A: Anoctamin-1 (ANO1, Homo sapiens, UniProt Q5XXA6, del476-501/E649A)
| target | test | conditions | how to read | normalized current |
| --- | --- | --- | --- | --- |
| ANO1 | chloride current, inside-out patch clamp | 30 µM, membrane voltage -20 mV |  | -0.214 |
| Anoctamin-1 (ANO1, Homo sapiens, UniProt Q5XXA6, del476-501/K629A) | chloride current, inhibitor, whole-cell voltage clamp | 100 µM | reference: untreated | 0.63 |
| ANO1 del476-501/R541A | chloride current, whole-cell voltage clamp | 30 µM, membrane voltage 0 mV, together with: 4 µM Ca2+ (saturating) |  | -0.0028 |
| ANO1 del476-501/E649A | ion current, inside-out patch clamp | 30 µM, E623A mutant at 120 mV |  | 1 |
| ANO1 del476-501/R541A | chloride current, inside-out patch clamp | 30 µM, membrane voltage -60 mV |  | -0.325 |
| ANO1 del476-501/E649A | ion current, inside-out patch clamp | 30 µM, E623A mutant at 100 mV |  | 0.787 |
| ANO1 | chloride current, inside-out patch clamp | 30 µM, membrane voltage 40 mV |  | 0.373 |
| ANO1 del476-501/E649A | ion current, inside-out patch clamp | 30 µM, E623A mutant at -20 mV |  | -0.124 |

Sample 3
Target: Calcium/calmodulin-dependent protein kinase type II subunit alpha (CAMK2A, Homo sapiens, UniProt Q9UQM7)
Sequence of UniProt Q9UQM7 (whole entry, looked up): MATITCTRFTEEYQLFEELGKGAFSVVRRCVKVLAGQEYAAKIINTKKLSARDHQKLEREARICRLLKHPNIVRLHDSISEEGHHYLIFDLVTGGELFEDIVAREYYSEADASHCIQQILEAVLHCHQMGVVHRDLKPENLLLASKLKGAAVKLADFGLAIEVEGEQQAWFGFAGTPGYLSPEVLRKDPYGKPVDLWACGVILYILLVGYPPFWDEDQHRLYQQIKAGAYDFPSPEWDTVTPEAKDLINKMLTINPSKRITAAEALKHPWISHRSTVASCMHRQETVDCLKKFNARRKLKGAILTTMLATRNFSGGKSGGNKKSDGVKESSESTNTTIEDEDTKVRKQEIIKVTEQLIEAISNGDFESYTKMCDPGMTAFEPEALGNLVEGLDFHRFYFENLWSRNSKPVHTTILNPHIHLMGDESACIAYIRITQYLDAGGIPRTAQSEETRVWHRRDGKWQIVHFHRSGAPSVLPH
Effect on: enzyme activity
Action: inhibitor
Concentration: 10 µM
| SMILES | inhibition |
| --- | --- |
| COc1cc(C(C)C)c(Oc2cnc(N)nc2N)cc1S(N)(=O)=O | -2% |
| CC(C)(C(=O)O)C(=O)O | -22% |
| O=C(N[C@H](COC(=O)[C@H](Cc1ccccc1)NC(=O)c1ccccc1)Cc1ccccc1)c1ccccc1 | -8% |
| COc1ccc(O)cc1 | -9% |
| Cc1onc(-c2ccccc2)c1-c1ccc(S(N)(=O)=O)cc1 | -6% |
| CO[C@@H]1O[C@H](CO)[C@H](O)[C@H](O)[C@H]1O | -17% |
| CCCCC1OC(=O)c2ccccc21 (stereo not drawn) | 20% |
| CCC(=O)O[C@]1(C(=O)CCl)[C@@H](C)C[C@H]2[C@@H]3C[C@H](F)C4=CC(=O)C=C[C@]4(C)[C@@]3(F)[C@@H](O)C[C@@]21C | -6% |
| COc1cc(O)cc(/C=C/c2ccccc2)c1 | -16% |
| O=C(c1ccc(O)cc1)c1c(O)cc(O)c([C@@H]2O[C@H](CO)[C@@H](O)[C@H](O)[C@H]2O)c1O | 4% |
| NC(=O)C1(N2CCCCC2)CCN(CCCC(=O)c2ccc(F)cc2)CC1 | -3% |

Sample 4
Structure (SMILES): O=C(Nc1ccc(Cl)cc1)c1ccccc1NCc1ccncc1
Effect on: enzyme activity
Action: inhibitor
Concentration: 0.5 µM
Reference: control
| target | remaining activity |
| --- | --- |
| cAMP-dependent protein kinase catalytic subunit gamma (PRKACG, Homo sapiens, UniProt P22612) | 87.4% |
| Tyrosine-protein kinase Blk (BLK, Homo sapiens, UniProt P51451) | 102% |
| Cyclin-dependent kinase 6, with cyclin D3 (CDK6, Homo sapiens, UniProt Q00534) | 86.5% |
| Dual specificity tyrosine-phosphorylation-regulated kinase 3 (DYRK3, Homo sapiens, UniProt O43781) | 104% |
| Tyrosine-protein kinase Srms (SRMS, Homo sapiens, UniProt Q9H3Y6) | 97.9% |
| Homeodomain-interacting protein kinase 2 (HIPK2, Homo sapiens, UniProt Q9H2X6) | 93% |
| Ephrin type-B receptor 1 (EPHB1, Homo sapiens, UniProt P54762) | 90.2% |
| Cyclin-dependent kinase 4, with cyclin D3 (CDK4, Homo sapiens, UniProt P11802) | 94.2% |
| 3-phosphoinositide-dependent protein kinase 1 (PDPK1, Homo sapiens, UniProt O15530) | 95.3% |
| MAP kinase-activated protein kinase 3 (MAPKAPK3, Homo sapiens, UniProt Q16644) | 91.4% |
| Homeodomain-interacting protein kinase 4 (HIPK4, Homo sapiens, UniProt Q8NE63) | 103% |
| Ephrin type-A receptor 4 (EPHA4, Homo sapiens, UniProt P54764) | 96.5% |
| Ribosomal protein S6 kinase alpha-6 (RPS6KA6, Homo sapiens, UniProt Q9UK32) | 104% |
| Cyclin-dependent kinase 1, with cyclin B (CDK1, Homo sapiens, UniProt P06493) | 96.3% |
| Serine/threonine-protein kinase 16 (STK16, Homo sapiens, UniProt O75716) | 94.1% |
| Serine/threonine-protein kinase 17A (STK17A, Homo sapiens, UniProt Q9UEE5) | 94.7% |
| Mitogen-activated protein kinase kinase kinase kinase 4 (MAP4K4, Homo sapiens, UniProt O95819) | 88.7% |
| Serine/threonine-protein kinase WNK3 (WNK3, Homo sapiens, UniProt Q9BYP7) | 92.9% |
| Ephrin type-B receptor 4 (EPHB4, Homo sapiens, UniProt P54760) | 89.6% |
| Phosphorylase b kinase gamma catalytic chain, skeletal muscle/heart isoform (PHKG1, Homo sapiens, UniProt Q16816) | 94.2% |
| Ribosomal protein S6 kinase alpha-5 (RPS6KA5, Homo sapiens, UniProt O75582) | 92.5% |
| Testis-specific serine/threonine-protein kinase 2 (TSSK2, Homo sapiens, UniProt Q96PF2) | 86.3% |
| Calcium/calmodulin-dependent protein kinase type II subunit beta (CAMK2B, Homo sapiens, UniProt Q13554) | 93.4% |
| Tyrosine-protein kinase receptor UFO (AXL, Homo sapiens, UniProt P30530) | 98.1% |

Some of these lines once more (sample 3):
| SMILES | inhibition |
| --- | --- |
| O=C(N[C@H](COC(=O)[C@H](Cc1ccccc1)NC(=O)c1ccccc1)Cc1ccccc1)c1ccccc1 | -8% |
| COc1ccc(O)cc1 | -9% |
| Cc1onc(-c2ccccc2)c1-c1ccc(S(N)(=O)=O)cc1 | -6% |
| CO[C@@H]1O[C@H](CO)[C@H](O)[C@H](O)[C@H]1O | -17% |
| CCCCC1OC(=O)c2ccccc21 (stereo not drawn) | 20% |
